Measured values from different studies.
Each line is one published result; not all experiments were run side by side. ± gives the spread as reported.
ALB: Albumin (ALB, Bos taurus, UniProt P02769)

SMILES | tested on | assay | test system | conditions | quantity | result
F[P-](F)(F)(F)(F)F.OC(Cn1cncn1)(Cn1cc(-[c-]2cccc2)nn1)c1ccc(F)cc1F.[Co+3].c1cc[cH-]c1 (racemic) | Trichuris muris | Worminator | adult males and females | 100 µM, day 3 | motility inhibition | 52%
CCCCCCCCCCCCCCCC(=O)N[C@@H](CCC(=O)NCCOCCOCCC(=O)NCCOCCOCCC(=O)NCCCC[C@H](NC(=O)[C@H](CC(=O)O)NC(=O)[C@H](CC(C)C)NC(=O)[C@H](Cc1ccc(O)cc1)NC(=O)[C@H](CCCCN)NC(=O)[C@H](CO)NC(=O)[C@H](Cc1ccc(O)cc1)NC(=O)[C@H](CC(=O)O)NC(=O)[C@H](CO)NC(=O)[C@@H](NC(=O)[C@H](Cc1ccccc1)NC(=O)[C@@H](NC(=O)CNC(=O)[C@H](CCC(N)=O)NC(=O)[C@@H](CO)NC(=O)[C@@H](N)Cc1c[nH]cn1)[C@@H](C)O)[C@@H](C)O)C(=O)N[C@@H](CCCNC(=N)N)C(=O)N[C@@H](CCCNC(=N)N)C(=O)N[C@@H](C)C(=O)N[C@@H](CCC(N)=O)C(=O)N[C@@H](CC(=O)O)C(=O)N[C@@H](Cc1ccccc1)C(=O)N[C@H](C(=O)N[C@@H](CCC(N)=O)C(=O)N[C@@H](Cc1c[nH]c2ccccc12)C(=O)N[C@@H](CC(C)C)C(=O)N[C@@H](CC(C)C)C(=O)N[C@@H](CC(N)=O)C(=O)N[C@H](C(=O)NCC(=O)NCC(=O)N1CCC[C@H]1C(=O)N[C@@H](CO)C(=O)N[C@@H](CO)C(=O)NCC(=O)N[C@@H](C)C(=O)N1CCC[C@H]1C(=O)N1CCC[C@H]1C(=O)N1CCC[C@H]1C(=O)N[C@@H](CO)C(N)=O)[C@@H](C)O)C(C)C)C(=O)O |  |  | rhesus monkey, plasma | subcutaneous, 20 µg/kg, multiple doses | AUC(0-t) | 90.7 ng·h/mL
CN1CCN(c2ccc3[nH]c(-c4ccc5[nH]c(-c6ccc(OCCCCNC(=O)c7ccc8c(c7)C7(OC8=O)c8ccc(N(C)C)cc8C(C)(C)c8cc(N(C)C)ccc87)cc6)nc5c4)nc3c2)CC1 | ALB |  | PBS | 1 µM, 1 h, added: 25 mg/mL albumin | fluorescence quantum yield | 0.181 ± 0.007
O=C(O)c1ccccc1OCc1ccccc1Br | Ras-related C3 botulinum toxin substrate 1 (RAC1, Homo sapiens, UniProt P63000) | GTP binding, flow cytometry bead |  | EDTA buffer, added: 100 nM BODIPY-GTP | EC50 | 151 nM
Cc1cc(=O)oc2cc(NC(=O)[C@@H]3CCC(=O)N3)ccc12 | DNA gyrase (gyrA/gyrB, Escherichia coli, UniProt P0AES4+P0AES6) | supercoiling activity, inhibitor, relaxed plasmid supercoiling |  | 100 to 1000 µM, added: gyrase 10 nM | inhibition | no inhibition
C[C@H](Nc1ncnc(N)c1C#N)c1c(-c2ccccc2)[nH]c2c(Cl)cccc2c1=O | Phosphatidylinositol 4,5-bisphosphate 3-kinase catalytic subunit alpha isoform (PIK3CA, Homo sapiens, UniProt P42336) | kinase activity, inhibitor |  |  | IC50 | 236 nM
CN1CCN(c2ccc3[nH]c(-c4ccc5[nH]c(-c6ccc(OCCCCNC(=O)c7ccc8c(c7)C(=O)OC87c8ccc(N(C)C)cc8[Si](C)(C)c8cc(N(C)C)ccc87)cc6)nc5c4)nc3c2)CC1 | ALB |  | PBS | 1 µM, 1 h, added: 25 mg/mL albumin | fluorescence quantum yield | 0.071 ± 0.004
C=C1C[C@](OC)([C@H](O)C(=O)NC[C@@H]2C[C@@H](OC)C(C)(C)[C@@H](C[C@@H](COC)OC)O2)O[C@H](C)[C@@H]1C | A549 | cell viability, sulforhodamine B |  | 72 h, 37 °C, added: 100 µM H2O2 | IC50 | 8 ± 2 nM

Some of these lines once more:
SMILES | tested on | assay | test system | conditions | quantity | result
O=C(O)c1ccccc1OCc1ccccc1Br | Ras-related C3 botulinum toxin substrate 1 (RAC1, Homo sapiens, UniProt P63000) | GTP binding, flow cytometry bead |  | EDTA buffer, added: 100 nM BODIPY-GTP | EC50 | 151 nM
